Assay results from different studies.
Every numbered part comes from another study and shows a few of its results, in no order. Changes are numbered by the printed parent chain.

Set 1 — method: protein-binding microarray; form: double-stranded DNA, one strand shown; medium: in vitro; concentration: 2200 nM top; setting: 60-bp whole probe; together with: salmon DNA 0.4 mg/ml; baseline: random background probes; reading: higher = stronger binding; all sequences stand within: GCCTAGCAC … GTCTTGATTCGCTTGACGCTGCTG
Target: Interferon regulatory factor 7, full length, phosphomimetic (IRF7, Homo sapiens, UniProt Q92985, residues 1-503, S471D/S472D/S475D/S476D/S477D/S483D/S484D/S487D)
Target sequence (chain): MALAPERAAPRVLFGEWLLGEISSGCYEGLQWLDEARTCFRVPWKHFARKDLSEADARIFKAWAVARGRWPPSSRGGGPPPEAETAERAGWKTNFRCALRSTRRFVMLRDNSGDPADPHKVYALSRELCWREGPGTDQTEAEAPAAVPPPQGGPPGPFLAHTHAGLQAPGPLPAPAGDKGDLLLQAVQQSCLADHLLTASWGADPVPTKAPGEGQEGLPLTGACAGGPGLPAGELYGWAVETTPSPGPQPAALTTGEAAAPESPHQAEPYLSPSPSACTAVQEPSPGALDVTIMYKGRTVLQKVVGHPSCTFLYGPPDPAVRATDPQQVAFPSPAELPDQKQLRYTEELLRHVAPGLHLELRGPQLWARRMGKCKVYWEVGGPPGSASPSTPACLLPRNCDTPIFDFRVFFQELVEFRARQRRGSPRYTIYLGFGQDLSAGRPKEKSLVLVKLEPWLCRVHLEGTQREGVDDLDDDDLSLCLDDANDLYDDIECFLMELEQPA
Oligonucleotide	fitted relative affinity [z-score]
GACGGTTACGGGACTGGGGACGTGCTA	-0.443
GACGATGTCAGTTTCGAGACGTGCTAG	3.2
TGCTTCTAACAGAGGAGGTTGTGCTAG	-0.182
GAAGGACTGGGACTGGGGACGTGCTAG	-0.89
TCAATCATTGTTTTCAGTTTGTGCTAG	4.23
TTAGGTATCTGACTGGGTTAGTGCTAG	0.0247
CTATATTAGGGAAGTGTGTTGTGCTAG	0.26
CACGATATCAGACTGGAGACGTGCTAG	0.401
TTAGGAGTGCTTTTCCTTTAGTGCTAG	0.772
TTAGAACTGAGTATCTATTAGTGCTAG	-0.446
TTATGTATCGGGTTTCGGTTAGTGCTA	4.82
TTTGGTATCGGGTTTCGGTTAGTGCTA	4.67
GACGGACTGGGGTTTCGGGTCGTGCTA	2.74
AACGGTCTCGGTCTCGGGACGTGCTAG	0.206
TTAGCTATCCTACTGCTTTAGTGCTAG	0.819
TGGGATTTTGTCCTCCCCTCGTGCTAG	0.208
GACGATCTCAGCCTCGAGACGTGCTAG	0.216
GACGGACTGGGTATCGCGACGTGCTAG	-0.566
TGGTATTTTTTTCTAATTGAGTGCTAG	1.26

Set 2 — method: protein-binding microarray; form: double-stranded DNA, one strand shown; medium: in vitro; concentration: 0.8 µM; setting: whole 60-bp probe, no competitor; reading: higher = stronger binding
Target: Centromere-binding protein 1, full length, N-terminal tag (CBF1, Saccharomyces cerevisiae, UniProt P17106, residues 1-351)
Sequence of UniProt P17106 (whole entry, looked up): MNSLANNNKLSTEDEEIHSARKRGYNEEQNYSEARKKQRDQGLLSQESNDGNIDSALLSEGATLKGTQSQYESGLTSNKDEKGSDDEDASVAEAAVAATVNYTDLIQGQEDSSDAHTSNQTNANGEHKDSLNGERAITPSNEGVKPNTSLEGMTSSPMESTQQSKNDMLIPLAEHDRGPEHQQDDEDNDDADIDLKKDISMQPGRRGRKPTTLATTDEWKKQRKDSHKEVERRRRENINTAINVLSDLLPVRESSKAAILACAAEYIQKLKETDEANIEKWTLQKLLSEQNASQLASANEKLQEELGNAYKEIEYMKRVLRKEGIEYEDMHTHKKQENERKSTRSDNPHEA
Oligonucleotide	fluorescence intensity [a.u.]
CTAGTATCGCATTATCACCACGCCTATATAACATTCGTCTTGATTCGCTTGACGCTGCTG	566
CTAACTTTAGAACACCACCAACAGATCGTTCTCTTCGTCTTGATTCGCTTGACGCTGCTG	519
CTAGTTGTGATCCGTCACGTGTATGCAAAACGCTTCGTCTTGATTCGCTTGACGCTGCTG	12600
CTACACTTAATACACCACCTGGTGTCCATTGCCTTCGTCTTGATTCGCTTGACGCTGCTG	585
CTAGATATGGACAAACACGTTGTTTTGATTTCTTTCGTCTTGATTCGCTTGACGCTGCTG	659
GAATAAAAGGTAACGCCCACCACGTTCGCCACCTAGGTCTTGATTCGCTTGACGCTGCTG	518
CCTAACTACTATAAGAGCGTGGGATAGCTTCGTACAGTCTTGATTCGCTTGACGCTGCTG	513
CTAGCGTTTCCTACGCACCTGCTAAAGACCTGATTCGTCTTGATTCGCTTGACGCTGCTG	649
CTACGATAACGGTACCACGTTCCCATAAAATTCTTCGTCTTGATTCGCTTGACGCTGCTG	729
GAAAGTGCAGAAGATCACGCGGTTTAATTCGTCTAGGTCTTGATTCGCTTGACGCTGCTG	1530
GAAGAAGTTATATGTCATGTTGCTCATTCTGTTTAGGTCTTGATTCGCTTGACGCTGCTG	546

Set 3 — method: RNA Bind-n-Seq; form: RNA; medium: in vitro; concentration: not given; baseline: input RNA pool; reading: higher = stronger binding
Target: RING finger protein unkempt homolog, zinc fingers 1-6, GST-SBP tag (UNK, Homo sapiens, UniProt Q9C0B0, residues 30-357)
Sequence of UniProt Q9C0B0 (30-357, looked up): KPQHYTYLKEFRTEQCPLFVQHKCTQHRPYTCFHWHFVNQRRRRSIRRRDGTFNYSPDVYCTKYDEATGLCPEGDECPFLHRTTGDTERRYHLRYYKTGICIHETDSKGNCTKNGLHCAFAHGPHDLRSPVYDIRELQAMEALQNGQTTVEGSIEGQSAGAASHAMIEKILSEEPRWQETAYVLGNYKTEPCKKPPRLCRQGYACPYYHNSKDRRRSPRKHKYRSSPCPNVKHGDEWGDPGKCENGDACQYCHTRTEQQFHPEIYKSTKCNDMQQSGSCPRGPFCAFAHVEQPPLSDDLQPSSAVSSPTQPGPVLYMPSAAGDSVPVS
Setting: RNA with constant flanks, human and mouse sites, ends assumed
Oligonucleotide	bound/input enrichment [ratio]
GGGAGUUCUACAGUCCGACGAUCGUUUGCUGACACCAUCAAGCAGCUGAGCCAGAAUACAUACACUCCUCGUGAGGCUGGAUCUCAAAAAGAUGAAAGUCUUGCCUAUUAUAUUGAAAAUCAGUUCCAUGAAUUUAAAUUCAGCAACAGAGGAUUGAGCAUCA	0.166
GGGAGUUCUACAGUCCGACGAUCUCAGUUAAGUUGUCAGAAAACAUGAAGGCUUCAUCCUUUAAAAAACUACAGAAGUUUUAUAUAGACCCAUAUAAGCUGCUGCCACUGCAGAGGUUUUUACCUCGACCUCCAGGUGAGAAACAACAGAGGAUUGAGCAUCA	0.268
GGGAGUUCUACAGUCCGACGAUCGAGUGCCUGAGCAACAUCCGCGAGUUCCUGCGCGCCUGCGGGGCGUCCCUGCGCCUAGAGACUUUUGAUGCAAAUGAUUUGUAUCAGGGGCAGAACUUUAACAAGGUCCUCAGCUCCUUGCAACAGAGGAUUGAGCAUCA	0.123
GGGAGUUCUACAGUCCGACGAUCGCGGCAGAAUCAUGGAGGACAUAAUGCAGCUCCCCAAAGCGCGCGUCAACGCCAGCAUGUUACCACAGUAUAUCGACCGGCCCGUGUGCUUCGUGGGGAAGCUGGAAAAGAUUCAUCCCACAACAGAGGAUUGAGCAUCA	0.107
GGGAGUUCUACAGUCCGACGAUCUUCUAUAACACUGGUUGAGAAAGUUCAGAUGAUCGCUGUAAUCCUAGGAUCCCUGUUCUUAAUAGCGAGUGUGACUUGGCUCCUCUGGUCAGCCUUCAGCCCCUAUGCAGUGUGGCAGAGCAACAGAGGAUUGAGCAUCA	0.319
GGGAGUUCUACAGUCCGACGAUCCGUCUUAACUAUGCCCAGUGGUAUCCAAUUGUUGUAUUUCUUAACCCUGAUUCUAAGCAAGGAGUAAAAACAAUGAGAAUGAGGUUAUGUCCAGAAUCUCGGAAAAGUGCCAGGAAGUUACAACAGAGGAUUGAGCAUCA	0.252
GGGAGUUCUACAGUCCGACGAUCCCGAUGAACAGGAAAUCAAUGCCUGAGGCAGACUUCAGCUCCUGGACACCCUUAGAGUUCCUGGUGGAAACCUUCCAUGACUGGAUCACUGGGAACAAACGGCCAAACUCAGGAAGCCUACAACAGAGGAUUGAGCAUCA	0.196
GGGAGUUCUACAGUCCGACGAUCUAAUGUAAACUUUCCAGUGGAUUGUUACUUACACACCUGAUACUAAGAAUUAAGUAGAAGAUAGAUUUUUAUGGACACUCUAGCUGUAUUGGAGCACUACUGGAUUUUAUAUUUCAGUCACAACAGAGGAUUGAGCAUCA	0.813

Set 4 — method: DHFR PCA, deep sequencing; medium: yeast; together with: (+)-ABA 17 µM; baseline: wild-type fitted maximum; reading: higher = stronger binding
Target: ABI1, truncated, D143A, DHFR fusion (Arabidopsis thaliana)
Setting: methotrexate growth selection, single substitutions
Starting sequence: PYL1, truncated, DHFR fusion (Arabidopsis thaliana); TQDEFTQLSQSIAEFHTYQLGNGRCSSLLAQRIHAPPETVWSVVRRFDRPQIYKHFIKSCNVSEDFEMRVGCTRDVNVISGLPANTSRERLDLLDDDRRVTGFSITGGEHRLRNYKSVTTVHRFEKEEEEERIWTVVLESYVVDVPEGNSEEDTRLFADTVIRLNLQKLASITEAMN
Variant	relative binding score
N114K	26.4%
S117Y	-23.6%
E125N	83%
R98C	40%
D97A	84.7%
G102N	-3.71%
G71I	-4.16%
E89R	-0.0968%
R132S	97.2%
G23A	65.8%
P83F	12.8%
E129I	78.5%
L166N	2.96%
Q2T	77%
P50A	8.34%
T106V	98.7%
D144T	48.3%
L8C	72.9%

Excerpt of the above (set 4):
Variant	relative binding score
G71I	-4.16%
E89R	-0.0968%
R132S	97.2%
G23A	65.8%
P83F	12.8%
E129I	78.5%
L166N	2.96%
Q2T	77%
